Published values collected from several papers.
Parts stem from different laboratories: compare values within a part only. “And” joins repeats or separate records; there may be more than shown.
Sequence of UniProt P37023 (whole entry, looked up): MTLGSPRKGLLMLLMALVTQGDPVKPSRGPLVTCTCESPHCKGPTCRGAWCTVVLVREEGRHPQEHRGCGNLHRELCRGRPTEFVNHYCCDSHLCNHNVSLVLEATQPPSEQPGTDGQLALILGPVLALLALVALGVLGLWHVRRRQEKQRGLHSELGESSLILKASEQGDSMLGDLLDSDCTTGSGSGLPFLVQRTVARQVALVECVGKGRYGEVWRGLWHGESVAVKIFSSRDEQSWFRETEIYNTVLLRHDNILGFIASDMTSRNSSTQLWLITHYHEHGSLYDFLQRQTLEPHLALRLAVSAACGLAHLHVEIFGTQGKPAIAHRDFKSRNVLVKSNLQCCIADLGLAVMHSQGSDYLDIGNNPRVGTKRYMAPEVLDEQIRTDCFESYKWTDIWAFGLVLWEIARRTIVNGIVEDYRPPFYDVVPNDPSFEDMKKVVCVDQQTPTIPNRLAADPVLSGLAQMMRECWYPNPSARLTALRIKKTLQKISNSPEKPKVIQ
Sequence of UniProt P07333 (whole entry, looked up): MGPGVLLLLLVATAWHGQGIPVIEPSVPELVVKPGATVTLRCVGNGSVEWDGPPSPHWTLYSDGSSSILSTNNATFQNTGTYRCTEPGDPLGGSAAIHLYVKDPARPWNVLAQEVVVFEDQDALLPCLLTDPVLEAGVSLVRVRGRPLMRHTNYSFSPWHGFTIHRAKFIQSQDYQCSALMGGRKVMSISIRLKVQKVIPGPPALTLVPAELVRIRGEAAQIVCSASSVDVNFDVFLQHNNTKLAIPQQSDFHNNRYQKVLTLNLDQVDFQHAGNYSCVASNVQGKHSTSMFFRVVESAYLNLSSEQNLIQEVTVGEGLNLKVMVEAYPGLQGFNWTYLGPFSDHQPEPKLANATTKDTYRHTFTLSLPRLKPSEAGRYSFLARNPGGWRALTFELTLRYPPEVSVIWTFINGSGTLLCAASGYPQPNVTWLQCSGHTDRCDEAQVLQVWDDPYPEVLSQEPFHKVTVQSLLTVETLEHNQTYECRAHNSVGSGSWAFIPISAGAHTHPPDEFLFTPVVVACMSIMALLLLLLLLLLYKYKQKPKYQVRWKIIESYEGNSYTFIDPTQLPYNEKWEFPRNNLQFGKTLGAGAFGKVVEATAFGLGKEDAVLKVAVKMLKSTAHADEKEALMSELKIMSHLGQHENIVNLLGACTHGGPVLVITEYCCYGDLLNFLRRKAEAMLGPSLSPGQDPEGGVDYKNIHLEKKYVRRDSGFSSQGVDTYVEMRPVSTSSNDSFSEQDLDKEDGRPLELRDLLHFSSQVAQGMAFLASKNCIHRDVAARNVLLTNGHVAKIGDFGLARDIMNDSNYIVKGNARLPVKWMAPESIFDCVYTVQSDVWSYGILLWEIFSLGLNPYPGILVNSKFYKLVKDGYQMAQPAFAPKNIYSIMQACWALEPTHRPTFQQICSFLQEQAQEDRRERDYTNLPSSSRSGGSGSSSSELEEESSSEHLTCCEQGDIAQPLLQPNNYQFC
Sequence of UniProt P53355 (whole entry, looked up): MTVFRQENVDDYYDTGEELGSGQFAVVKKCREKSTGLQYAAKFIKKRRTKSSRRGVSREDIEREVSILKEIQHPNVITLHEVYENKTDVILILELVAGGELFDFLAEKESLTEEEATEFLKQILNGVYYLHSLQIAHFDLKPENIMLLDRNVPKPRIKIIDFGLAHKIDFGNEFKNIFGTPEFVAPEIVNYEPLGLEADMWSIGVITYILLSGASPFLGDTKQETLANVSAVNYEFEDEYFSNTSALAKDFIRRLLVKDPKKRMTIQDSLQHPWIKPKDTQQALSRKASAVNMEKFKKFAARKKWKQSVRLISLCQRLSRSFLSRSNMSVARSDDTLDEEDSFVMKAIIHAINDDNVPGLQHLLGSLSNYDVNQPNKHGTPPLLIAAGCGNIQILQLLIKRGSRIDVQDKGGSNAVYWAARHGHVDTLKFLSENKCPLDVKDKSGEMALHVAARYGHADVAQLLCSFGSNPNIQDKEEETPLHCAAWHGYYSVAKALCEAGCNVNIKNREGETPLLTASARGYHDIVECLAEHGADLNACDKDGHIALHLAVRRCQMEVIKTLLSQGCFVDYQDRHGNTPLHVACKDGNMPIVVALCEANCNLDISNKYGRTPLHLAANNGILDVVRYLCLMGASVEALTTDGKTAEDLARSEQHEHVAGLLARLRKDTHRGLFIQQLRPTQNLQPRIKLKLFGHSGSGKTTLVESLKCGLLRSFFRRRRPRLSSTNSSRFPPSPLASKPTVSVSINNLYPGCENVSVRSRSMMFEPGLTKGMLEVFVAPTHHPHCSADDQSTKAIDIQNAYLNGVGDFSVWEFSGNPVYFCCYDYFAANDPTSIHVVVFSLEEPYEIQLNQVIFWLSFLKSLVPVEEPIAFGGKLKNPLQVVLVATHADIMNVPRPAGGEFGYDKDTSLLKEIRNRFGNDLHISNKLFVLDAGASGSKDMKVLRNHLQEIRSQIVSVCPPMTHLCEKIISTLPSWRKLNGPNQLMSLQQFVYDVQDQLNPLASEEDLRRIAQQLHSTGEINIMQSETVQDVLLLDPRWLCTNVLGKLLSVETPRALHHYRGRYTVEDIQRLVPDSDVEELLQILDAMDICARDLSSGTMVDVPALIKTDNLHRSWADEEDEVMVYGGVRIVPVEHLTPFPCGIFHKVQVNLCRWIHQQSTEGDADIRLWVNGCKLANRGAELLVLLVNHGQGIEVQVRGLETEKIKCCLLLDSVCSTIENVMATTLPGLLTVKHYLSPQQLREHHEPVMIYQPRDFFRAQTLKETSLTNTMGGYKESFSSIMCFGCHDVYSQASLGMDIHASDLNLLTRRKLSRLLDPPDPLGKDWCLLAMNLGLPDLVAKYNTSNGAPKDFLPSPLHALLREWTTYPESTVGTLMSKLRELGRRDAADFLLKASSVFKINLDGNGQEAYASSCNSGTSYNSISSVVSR
Sequence of UniProt Q9BWU1 (whole entry, looked up): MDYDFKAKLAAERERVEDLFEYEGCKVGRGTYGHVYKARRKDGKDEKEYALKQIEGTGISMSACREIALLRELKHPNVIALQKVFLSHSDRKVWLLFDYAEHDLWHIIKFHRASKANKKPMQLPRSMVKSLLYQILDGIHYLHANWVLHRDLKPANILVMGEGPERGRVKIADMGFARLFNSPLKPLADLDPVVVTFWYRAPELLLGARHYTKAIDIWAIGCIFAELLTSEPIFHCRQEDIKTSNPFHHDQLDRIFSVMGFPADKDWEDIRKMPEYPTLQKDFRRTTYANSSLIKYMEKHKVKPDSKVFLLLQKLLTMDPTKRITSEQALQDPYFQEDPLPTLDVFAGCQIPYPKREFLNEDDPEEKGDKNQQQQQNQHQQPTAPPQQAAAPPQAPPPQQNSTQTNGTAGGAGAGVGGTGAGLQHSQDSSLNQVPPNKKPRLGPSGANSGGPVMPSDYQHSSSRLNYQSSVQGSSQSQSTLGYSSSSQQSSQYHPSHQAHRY

Set 1 — tested at: 1 µM
SMILES: COc1cc(-c2nc3ccc(C(=O)NCCCN4CCN(c5cccc(C)c5C)CC4)cc3n2C2CCC2)cc(OC)c1OC
target | read-out | technique | reference | remaining binding [%]
Macrophage colony-stimulating factor 1 receptor, autoinhibited (CSF1R, Homo sapiens, UniProt P07333) | binding | competition with immobilised ligand | – | 82
Phosphatidylinositol 5-phosphate 4-kinase type-2 beta (PIP4K2B, Homo sapiens, UniProt P78356) | binding | competition with immobilised ligand | – | 100
Serine/threonine-protein kinase mTOR (MTOR, Homo sapiens, UniProt P42345) | binding | competition with immobilised ligand | – | 100
Ribosomal protein S6 kinase alpha-1, C-terminal kinase domain (RPS6KA1, Homo sapiens, UniProt Q15418) | binding | competition with immobilised ligand | – | 95
Death-associated protein kinase 1 (DAPK1, Homo sapiens, UniProt P53355) | binding | competition with immobilised ligand | – | 97
Serine/threonine-protein kinase N1 (PKN1, Homo sapiens, UniProt Q16512) | binding | competition with immobilised ligand | – | 82
Misshapen-like kinase 1 (MINK1, Homo sapiens, UniProt Q8N4C8) | binding | competition with immobilised ligand | – | 92
Tyrosine-protein kinase ABL1, non-phosphorylated (ABL1, Homo sapiens, UniProt P00519, T315I) | binding | competition with immobilised ligand | – | 91
Inhibitor of nuclear factor kappa-B kinase subunit alpha (CHUK, Homo sapiens, UniProt O15111) | binding | competition with immobilised ligand | – | 89
Serine/threonine-protein kinase Nek3 (NEK3, Homo sapiens, UniProt P51956) | binding | competition with immobilised ligand | – | 78
Activin receptor type-1-like (ACVRL1, Homo sapiens, UniProt P37023) | binding | competition with immobilised ligand | – | 0
Epidermal growth factor receptor (EGFR, Homo sapiens, UniProt P00533, L858R) | binding | competition with immobilised ligand | – | 68
MAP kinase-interacting serine/threonine-protein kinase 1 (MKNK1, Homo sapiens, UniProt Q9BUB5) | binding | competition with immobilised ligand | – | 94
Cyclin-dependent kinase 19 (CDK19, Homo sapiens, UniProt Q9BWU1) | – | KINOMEscan | control | 100
Proto-oncogene tyrosine-protein kinase ROS (ROS1, Homo sapiens, UniProt P08922) | binding | competition with immobilised ligand | – | 95
Calcium/calmodulin-dependent protein kinase type II subunit delta (CAMK2D, Homo sapiens, UniProt Q13557) | binding | competition with immobilised ligand | – | 98

Set 2 — read-out: enzyme activity; action: inhibitor; technique: Ub-TR-FRET; matrix: HECT domain; tested at: 0.4115 µM; direction: higher = more chain formation
Target: E3 ubiquitin-protein ligase NEDD4, HECT domain (Homo sapiens, UniProt P46934)
Construct (P46934 938-1319, limits assumed): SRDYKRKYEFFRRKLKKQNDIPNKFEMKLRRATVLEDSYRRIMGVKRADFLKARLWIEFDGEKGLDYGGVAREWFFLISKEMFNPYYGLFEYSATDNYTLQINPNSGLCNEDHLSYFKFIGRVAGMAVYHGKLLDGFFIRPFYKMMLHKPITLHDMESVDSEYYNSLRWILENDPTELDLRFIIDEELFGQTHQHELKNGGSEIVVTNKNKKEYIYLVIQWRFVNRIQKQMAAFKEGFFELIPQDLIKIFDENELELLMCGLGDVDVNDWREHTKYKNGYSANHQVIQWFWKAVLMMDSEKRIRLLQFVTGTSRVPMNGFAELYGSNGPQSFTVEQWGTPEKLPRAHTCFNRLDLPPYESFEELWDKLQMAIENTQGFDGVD
Compound | ubiquitin chain formation AUC
CNC(=O)/C=C/CNCCCCN1c2ccccc2CCc2ccc(Cl)cc21.Cl | 85500 a.u. and 70000 a.u. and 68300 a.u. and 85900 a.u. and 69100 a.u. and 84200 a.u.
CCOC(=O)/C=C/CN(CCCCN1c2ccccc2CCc2ccc(Cl)cc21)C(C)C.O=C(O)/C=C\C(=O)O | 72600 a.u. and 74600 a.u. and 73500 a.u. and 72800 a.u. and 74300 a.u. and 73200 a.u.
CCOC(=O)/C=C/CNCCCCN1c2ccccc2C(=O)N(C)c2ccc(Cl)cc21.O=C(O)/C=C\C(=O)O | 87000 a.u. and 87600 a.u. and 89400 a.u.
CCOC(=O)/C=C/CNCCCN1c2ccccc2CCc2ccc(Cl)cc21 | 40600 a.u. and 39100 a.u. and 45500 a.u.
CCOC(=O)/C=C/CNCCCCN1c2cc(Cl)ccc2CCc2cnn(C)c21.O=C(O)/C=C\C(=O)O | 31200 a.u. and 37700 a.u. and 36300 a.u. and 36600 a.u. and 15200 a.u. and 13700 a.u.
CNCCCN1c2ccccc2CCc2ccc(Cl)cc21 | 147000 a.u. and 146000 a.u. and 144000 a.u.
CCOC(=O)/C=C/CNCCCCN1c2ccccc2COc2ccc(Cl)cc21.O=C(O)/C=C\C(=O)O | 68800 a.u. and 66400 a.u. and 63600 a.u.
CN(C)C(=O)/C=C/CNCCCN1c2ccccc2CCc2ccc(Cl)cc21.Cl | 139000 a.u. and 140000 a.u. and 141000 a.u.
N#C/C=C/CNCCCCN1c2ccccc2CCc2ccc(Cl)cc21.O=C(O)/C=C\C(=O)O | 43500 a.u. and 51400 a.u. and 47500 a.u. and 48100 a.u. and 44300 a.u. and 59400 a.u.
CNC(=O)/C=C/CNCCCN1c2ccccc2CCc2ccc(Cl)cc21.Cl | 131000 a.u. and 133000 a.u.

Set 3 — read-out: thermal unfolding; technique: differential scanning fluorimetry; tested at: 5.5 µM; direction: higher = more unfolded
SMILES: C[C@@H]1CN(c2ccc(-c3cc(C(=O)NCCOCCOCCOCCOCCNC(=O)Cn4cc(-c5[nH]cc(C(=O)N[C@@H](CC(N)=O)c6ccc(F)c(Cl)c6)c5-c5ccc(Cl)cc5F)cn4)ccc3F)cc2NC(=O)c2c[nH]c(=O)cc2C(F)(F)F)C[C@H](C)N1C
DCAF1: DDB1- and CUL4-associated factor 1 (DCAF1, Homo sapiens, UniProt Q9Y4B6)
Sequence of UniProt Q9Y4B6 (whole entry, looked up): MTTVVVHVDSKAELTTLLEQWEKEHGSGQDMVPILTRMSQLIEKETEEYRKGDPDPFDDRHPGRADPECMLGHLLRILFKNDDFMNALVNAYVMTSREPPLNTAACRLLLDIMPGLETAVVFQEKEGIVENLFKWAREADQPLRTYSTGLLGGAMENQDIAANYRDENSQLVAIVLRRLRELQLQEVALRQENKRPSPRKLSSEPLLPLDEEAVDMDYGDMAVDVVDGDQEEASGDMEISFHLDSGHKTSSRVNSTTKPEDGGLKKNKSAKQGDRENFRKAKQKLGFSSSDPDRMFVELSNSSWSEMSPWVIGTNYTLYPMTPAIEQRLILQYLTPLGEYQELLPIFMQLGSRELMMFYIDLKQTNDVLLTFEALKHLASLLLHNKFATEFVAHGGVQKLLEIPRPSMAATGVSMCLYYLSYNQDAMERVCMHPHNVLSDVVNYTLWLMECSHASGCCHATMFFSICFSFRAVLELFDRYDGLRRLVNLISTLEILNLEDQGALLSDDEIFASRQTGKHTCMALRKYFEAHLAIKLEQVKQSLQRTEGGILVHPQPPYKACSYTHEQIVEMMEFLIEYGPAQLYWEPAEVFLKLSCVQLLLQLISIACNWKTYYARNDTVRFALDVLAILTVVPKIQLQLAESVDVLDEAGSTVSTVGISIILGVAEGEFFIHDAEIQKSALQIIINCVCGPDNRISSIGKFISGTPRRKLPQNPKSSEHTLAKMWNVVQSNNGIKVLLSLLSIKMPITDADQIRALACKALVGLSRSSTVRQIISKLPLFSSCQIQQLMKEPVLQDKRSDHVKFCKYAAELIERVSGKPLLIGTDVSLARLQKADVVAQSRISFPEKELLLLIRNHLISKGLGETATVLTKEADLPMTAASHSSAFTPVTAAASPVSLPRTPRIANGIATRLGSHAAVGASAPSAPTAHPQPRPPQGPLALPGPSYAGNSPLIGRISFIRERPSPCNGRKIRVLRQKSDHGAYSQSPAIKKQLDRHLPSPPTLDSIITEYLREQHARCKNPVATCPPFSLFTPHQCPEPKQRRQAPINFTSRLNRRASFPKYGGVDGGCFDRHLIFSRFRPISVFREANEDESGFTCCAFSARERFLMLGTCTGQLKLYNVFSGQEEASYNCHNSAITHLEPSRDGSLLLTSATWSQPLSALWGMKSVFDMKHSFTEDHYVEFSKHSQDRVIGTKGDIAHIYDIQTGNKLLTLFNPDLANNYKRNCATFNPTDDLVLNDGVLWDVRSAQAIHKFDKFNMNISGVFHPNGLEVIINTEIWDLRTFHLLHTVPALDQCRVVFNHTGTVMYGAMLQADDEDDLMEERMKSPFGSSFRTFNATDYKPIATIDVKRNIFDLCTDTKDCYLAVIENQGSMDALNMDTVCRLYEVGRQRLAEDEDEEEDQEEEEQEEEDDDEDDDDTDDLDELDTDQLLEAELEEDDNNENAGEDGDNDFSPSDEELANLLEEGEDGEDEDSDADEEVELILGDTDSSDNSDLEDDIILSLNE
WDR5: WD repeat-containing protein 5 (WDR5, Homo sapiens, UniProt P61964)
target | temperature | SYPRO Orange fluorescence [a.u.]
DCAF1 | 44.8 °C | 12100
DCAF1 | 65.21 °C | 56100
DCAF1 | 25 °C | 7400
WDR5 | 27.2 °C | 14800
WDR5 | 76.41 °C | 13600
DCAF1 | 26.6 °C | 7690
WDR5 | 77.81 °C | 16700
DCAF1 | 52.2 °C | 15900
DCAF1 | 38.6 °C | 9820
DCAF1 | 91.81 °C | 33400
WDR5 | 63.01 °C | 8810

Set 4 — action: degrader; technique: western blot; species: mouse, PK-59 xenograft; matrix: tumour; notes: unit not given; reference: β-actin
SMILES: Cc1ncsc1-c1ccc(C(CO)NC(=O)C2CC(O)CN2C(=O)C(C(C)C)n2cc(-c3ccc(COc4c(-c5c(C)c(F)cc6[nH]ncc56)c(C5CC5)cc5c(N6CC7CC6CN7)nc(OC6CCOCC6)nc45)cc3)nn2)cc1 (stereo not shown)
Target: GTPase KRas (KRAS, Homo sapiens, UniProt P01116, G12D)
dose | time | KRAS G12D level
30 mg/kg | 72 h | 0.0067 and 0.0043 and 0.005
10 mg/kg | 2 h | 0.107 and 0.0843 and 0.075
10 mg/kg | 6 h | 0.13 and 0.129 and 0.162
30 mg/kg | 48 h | 0.02 and 0.0166 and 0.0186
30 mg/kg | 24 h | 0.0086 and 0.0055 and 0.0052
30 mg/kg | 144 h | 0.0285 and 0.028 and 0.0127

Excerpt of the above (set 2):
Compound | ubiquitin chain formation AUC
CCOC(=O)/C=C/CNCCCN1c2ccccc2CCc2ccc(Cl)cc21 | 40600 a.u. and 39100 a.u. and 45500 a.u.
CCOC(=O)/C=C/CNCCCCN1c2cc(Cl)ccc2CCc2cnn(C)c21.O=C(O)/C=C\C(=O)O | 31200 a.u. and 37700 a.u. and 36300 a.u. and 36600 a.u. and 15200 a.u. and 13700 a.u.
CNCCCN1c2ccccc2CCc2ccc(Cl)cc21 | 147000 a.u. and 146000 a.u. and 144000 a.u.
CCOC(=O)/C=C/CNCCCCN1c2ccccc2COc2ccc(Cl)cc21.O=C(O)/C=C\C(=O)O | 68800 a.u. and 66400 a.u. and 63600 a.u.
